Published values pooled from the literature.

Compound	organism	assay	system	conditions	MIC
CC1(C)SC2C(NC(=O)C(NC(=O)C3=C(O)CN(c4ccccc4)C3=O)c3ccccc3)C(=O)N2C1C(=O)O (stereo not shown)	Escherichia coli	broth microdilution	JW0790-2 fiu deletion mutant	ferric iron uptake gene	100 µg/mL
N=C(N)NCCC[C@H](NC(=O)CN)C(=O)N[C@@H](Cc1c[nH]c2ccccc12)C(=O)N[C@@H](CCCNC(=N)N)C(=O)N[C@@H](Cc1c[nH]c2ccccc12)C(=O)N[C@@H](Cc1c[nH]c2ccccc12)C(=O)N[C@@H](Cc1c[nH]c2ccccc12)C(=O)N[C@@H](CCCNC(=N)N)C(=O)N[C@@H](Cc1c[nH]c2ccccc12)C(=O)N[C@@H](CCCNC(=N)N)C(=O)N[C@@H](Cc1ccccc1)C(N)=O	Candida albicans	broth microdilution	56467, RPMI 1640-MOPS	48 h, 30 °C	16 µM
CN[C@H](CC(C)C)C(=O)N[C@H]1C(=O)N[C@@H](CC(N)=O)C(=O)N[C@H]2C(=O)NC3C(=O)N[C@H](C(=O)N[C@H](C(=O)NCCC[N+](C)(C)C)c4cc(O)cc(O)c4-c4cc3ccc4O)[C@H](O)c3ccc(c(Cl)c3)Oc3cc2cc(c3OC2OC(CO)C(O)[C@H](O)[C@@H]2O[C@H]2CC(C)(NCc3ccc(-c4ccc(Cl)cc4)cc3)[C@H](O)[C@H](C)O2)Oc2ccc(cc2Cl)[C@H]1O (stereo partly shown)	Enterococcus faecalis		BM 4166 vanA	with: 100 µg/mL NaH2PO4 plus LTA	1 µg/mL
CC(C)(C)Oc1ccc(CC2NC(=O)C(C(=O)NC(C(=O)NC3C(=O)N4C3SC(C)(C)C4C(=O)O)c3ccccc3)=C2O)cc1 (stereo not shown)	Escherichia coli	broth microdilution	Keio mutant JW0587-1	18 h, enterobactin-related gene	25 µg/mL
CC(C)C[C@@H]1NC(=O)[C@H](Cc2ccccc2)NC(=O)[C@H](Cc2ccc(O)cc2)NC(=O)[C@H](CC(C)C)NC(=O)[C@H](CCC(=O)O)NC(=O)[C@H](Cc2ccccc2)NC(=O)[C@H](CCCNC(=N)N)NC(=O)[C@H](CCC(N)=O)NC(=O)[C@H](CC(C)C)NC(=O)[C@H](CC(=O)O)NC(=O)[C@@H]2CCCN2C(=O)[C@H](CCCCN)NC(=O)[C@H](C(C)C)NC(=O)[C@H](CC(N)=O)NC(=O)[C@H](Cc2ccc(O)cc2)NC(=O)[C@H]([C@@H](C)O)NC(=O)[C@@H](N)CSSC[C@@H](C(=O)O)NC(=O)[C@H]([C@@H](C)O)NC(=O)[C@H](C(C)C)NC(=O)[C@H]([C@@H](C)O)NC(=O)CNC1=O	Shigella flexneri	broth dilution	CGMCC strain	24 h	> 40 µM
C[C@@H](O)[C@H](NC(=O)[C@H](Cc1c[nH]c2ccccc12)NC(=O)[C@H](Cc1c[nH]c2ccccc12)NC(=O)[C@H](Cc1c[nH]c2ccccc12)NC(=O)[C@@H](NC(=O)[C@H](Cc1c[nH]c2ccccc12)NC(=O)[C@H](CCCNC(=N)N)NC(=O)[C@@H](N)CCCNC(=N)N)[C@@H](C)O)C(=O)N[C@@H](Cc1c[nH]c2ccccc12)C(=O)N[C@@H](CCCNC(=N)N)C(=O)N[C@@H](CCCNC(=N)N)C(N)=O	Lactiplantibacillus plantarum		7469, probiotic strain	24 h, 37 °C, tested up to 128 µM	128 µM
CC1(C)SC2C(NC(=O)C(NC(=O)C3=C(O)C4(CC4)NC3=O)c3ccccc3)C(=O)N2C1C(=O)O (stereo not shown)	Escherichia coli	broth microdilution	Keio mutant JW5086-3	18 h, ferrienterobactin permease gene	50 µg/mL
N=C(N)NCCC[C@H](NC(=O)CCCCCNC(=O)[C@H](CCCNC(=N)N)NC(=O)[C@H](CCCNC(=N)N)NC(=O)CCCCCNC(=O)[C@H](CCCNC(=N)N)NC(=O)[C@H](CCCNC(=N)N)NC(=O)CCCCCNC(=O)[C@H](CCCNC(=N)N)NC(=O)[C@H](CCCNC(=N)N)NC(=O)CCCCCNC(=O)[C@@H](N)CCCNC(=N)N)C(=O)NCCCCCC(=O)NCCC(=O)O	Escherichia coli		ATCC 25922	1 h, 37 °C, after 25% human serum	96 µM
CC1NC(=O)C(C(=O)NC(C(=O)NC2C(=O)N3C2SC(C)(C)C3C(=O)O)c2ccccc2)=C1O (stereo not shown)	Escherichia coli	broth microdilution	ATCC 35218, low-level TEM-1	with: clavulanic acid 6 µg/mL	> 200 µg/mL
CC[C@H](C)[C@H](NC(=O)[C@H](CCCCN)NC(=O)[C@H](CCCCN)NC(=O)[C@H](Cc1ccccc1)NC(=O)[C@@H](NC(=O)[C@@H](NC(=O)[C@H](CCCNC(=N)N)NC(=O)[C@H](Cc1ccccc1)NC(=O)[C@@H](NC(=O)[C@H](CCCCN)NC(=O)[C@H](CCCCN)NC(=O)[C@@H](N)CCSC)[C@@H](C)CC)C(C)C)[C@@H](C)CC)C(=O)N[C@@H](CC(C)C)C(=O)N[C@@H](CCCCN)C(=O)N[C@@H](CCCNC(=N)N)C(=O)N[C@@H](CC(C)C)C(=O)N[C@H](C(=O)N[C@H](C(=O)O)C(C)C)[C@@H](C)CC	Staphylococcus aureus	broth microdilution	MRSA GU-1	compound pretreated with pepsin 1 h, with: pepsin 1 mg/mL	16 µg/mL
CC[C@H](C)[C@H](NC(=O)[C@H](CCCNC(=N)N)NC(=O)[C@H](Cc1c[nH]c2ccccc12)NC(=O)[C@H](CCCNC(=N)N)NC(=O)[C@H](Cc1c[nH]c2ccccc12)NC(=O)[C@H](Cc1c[nH]c2ccccc12)NC(=O)[C@H](Cc1c[nH]c2ccccc12)NC(=O)[C@H](CCCNC(=N)N)NC(=O)[C@H](Cc1c[nH]c2ccccc12)NC(=O)[C@@H](N)CCCNC(=N)N)C(N)=O	Candida albicans	broth microdilution	CGMCC 2.209, RPMI 1640-MOPS	48 h, 30 °C, with: FeCl3 4 µM	16 µM
CC[C@H](C)[C@H](NC(=O)[C@H](CC(C)C)NC(=O)[C@@H]1CCCN1C(=O)[C@@H](N)CC(C)C)C(=O)N[C@H](C(=O)N[C@@H](Cc1ccccc1)C(=O)N[C@@H](CC(C)C)C(=O)N[C@@H](CCCNC(=N)N)C(=O)N[C@@H](CC(N)=O)C(=O)N[C@@H](CCCNC(=N)N)C(=O)N[C@@H](CC(C)C)C(=O)N[C@@H](CCCCN)C(=O)N[C@@H](Cc1ccc(O)cc1)C(=O)O)[C@@H](C)CC	Staphylococcus haemolyticus				100 µg/mL
CC(C)C[C@H](NC(=O)[C@H](CCCNC(=N)N)NC(=O)[C@H](Cc1c[nH]c2ccccc12)NC(=O)[C@H](CCCNC(=N)N)NC(=O)[C@H](Cc1c[nH]c2ccccc12)NC(=O)[C@H](Cc1c[nH]c2ccccc12)NC(=O)[C@H](Cc1c[nH]c2ccccc12)NC(=O)[C@H](CCCNC(=N)N)NC(=O)[C@H](Cc1c[nH]c2ccccc12)NC(=O)[C@@H](N)CCCNC(=N)N)C(N)=O	Candida albicans	broth microdilution	CGMCC 2.209, RPMI 1640-MOPS	48 h, 30 °C, with: FeCl3 4 µM	16 µM
CC(C)CC1NC(=O)C(C(=O)NC(C(=O)NC2C(=O)N3C2SC(C)(C)C3C(=O)O)c2ccccc2)=C1O (stereo not shown)	Escherichia coli	broth microdilution	isolate IU, CTX-M-14, TEM-1	with: clavulanic acid 6 µg/mL	> 200 µg/mL
C[C@H](NC(=O)[C@H](CCCNC(=N)N)NC(=O)[C@H](Cc1c[nH]c2ccccc12)NC(=O)[C@H](CCCNC(=N)N)NC(=O)[C@H](Cc1c[nH]c2ccccc12)NC(=O)[C@H](Cc1c[nH]c2ccccc12)NC(=O)[C@H](Cc1c[nH]c2ccccc12)NC(=O)[C@H](CCCNC(=N)N)NC(=O)[C@H](Cc1c[nH]c2ccccc12)NC(=O)[C@H](CCCNC(=N)N)NC(=O)CN)C(N)=O	Candida albicans	broth microdilution	CGMCC 2.209, RPMI 1640-MOPS	48 h, 30 °C	8 µM
CC[C@H](C)[C@H](NC(=O)[C@H](CCCCN)NC(=O)[C@@H](NC(=O)[C@H](Cc1ccc(O)cc1)NC(=O)[C@H](CCCCN)NC(=O)[C@H](CCCCN)NC(=O)CNC(=O)[C@H](CCCCN)NC(=O)[C@@H](NC(=O)[C@H](C)NC(=O)[C@H](CC(C)C)NC(=O)[C@H](Cc1c[nH]c2ccccc12)NC(=O)CNC(=O)[C@@H](NC(=O)[C@H](Cc1ccccc1)NC(=O)[C@H](CCCCN)NC(=O)[C@H](CC(C)C)NC(=O)[C@H](Cc1ccccc1)NC(=O)[C@H](C)NC(=O)CNC(=O)[C@@H](N)CCSC)C(C)C)[C@@H](C)O)C(C)C)C(=O)N[C@@H](C)C(=O)N[C@@H](Cc1c[nH]c2ccccc12)C(=O)N[C@@H](CC(=O)O)C(=O)N[C@@H](Cc1c[nH]cn1)C(=O)N[C@@H](CCCCN)C(=O)NCC(=O)N[C@H](C(=O)N[C@H](C(=O)N[C@@H](CCSC)C(=O)N[C@@H](CCCCN)C(=O)N[C@@H](Cc1c[nH]c2ccccc12)C(=O)N[C@@H](CC(C)C)C(=O)N[C@@H](CC(N)=O)C(=O)N[C@@H](C)C(=O)NCC(=O)N[C@@H](CCC(N)=O)C(=O)N[C@H](C(=O)N[C@@H](Cc1ccccc1)C(=O)N[C@H](C(=O)N[C@@H](Cc1c[nH]c2ccccc12)C(=O)N[C@H](C(=O)N[C@@H](Cc1ccc(O)cc1)C(=O)N[C@@H](CCC(=O)O)C(=O)N[C@@H](CCC(N)=O)C(=O)N[C@H](C(=O)N[C@@H](CCCCN)C(=O)N[C@@H](CCCCN)C(=O)N[C@@H](CC(C)C)C(=O)N[C@@H](Cc1c[nH]c2ccccc12)C(=O)N[C@H](C(=O)O)[C@@H](C)O)[C@@H](C)CC)C(C)C)[C@@H](C)O)[C@@H](C)O)[C@@H](C)CC)[C@@H](C)O	Pediococcus damnosus		CECT 4797	32 °C, non-formylated synthetic	0.5 µg/mL
N=C(N)NCCC[C@H](NC(=O)[C@H](Cc1c[nH]c2ccccc12)NC(=O)[C@H](CCCNC(=N)N)NC(=O)[C@H](Cc1c[nH]c2ccccc12)NC(=O)[C@H](Cc1c[nH]c2ccccc12)NC(=O)[C@H](Cc1c[nH]c2ccccc12)NC(=O)[C@H](CCCNC(=N)N)NC(=O)[C@H](Cc1c[nH]c2ccccc12)NC(=O)[C@@H](N)CCCNC(=N)N)C(=O)N[C@@H](Cc1ccccc1)C(N)=O	Candida albicans	broth microdilution	CGMCC 2.209, RPMI 1640-MOPS	48 h, 30 °C, with: MgCl2 1 mM	32 µM
CC(C)(C)OCC1NC(=O)C(C(=O)NC(C(=O)NC2C(=O)N3C2SC(C)(C)C3C(=O)O)c2ccccc2)=C1O (stereo not shown)	Escherichia coli	broth microdilution	ATCC 35218, low-level TEM-1	no clavulanic acid	> 200 µg/mL
CC(C)[C@H](NC(=O)[C@H](CCCNC(=N)N)NC(=O)[C@H](Cc1c[nH]c2ccccc12)NC(=O)[C@H](CCCNC(=N)N)NC(=O)[C@H](Cc1c[nH]c2ccccc12)NC(=O)[C@H](Cc1c[nH]c2ccccc12)NC(=O)[C@H](Cc1c[nH]c2ccccc12)NC(=O)[C@H](CCCNC(=N)N)NC(=O)[C@H](Cc1c[nH]c2ccccc12)NC(=O)[C@H](CCCNC(=N)N)NC(=O)CN)C(N)=O	Candida albicans	broth microdilution	CGMCC 2.209, RPMI 1640-MOPS	48 h, 30 °C, with: KCl 4.5 mM	8 µM
Cc1ncc([N+](=O)[O-])n1CCO	Bacteroides spp. and Parabacteroides distasonis				0.25 to 1 µg/mL
CC1(C)SC2C(NC(=O)C(NC(=O)C3=C(O)C(Cc4ccc([N+](=O)[O-])cc4)NC3=O)c3ccccc3)C(=O)N2C1C(=O)O (stereo not shown)	Escherichia coli	broth microdilution	Keio mutant JW5195-1	18 h	25 µg/mL
N=C(N)NCCC[C@H](NC(=O)[C@H](Cc1c[nH]c2ccccc12)NC(=O)[C@H](CCCNC(=N)N)NC(=O)[C@H](Cc1c[nH]c2ccccc12)NC(=O)[C@H](Cc1c[nH]c2ccccc12)NC(=O)[C@H](Cc1c[nH]c2ccccc12)NC(=O)[C@H](CCCNC(=N)N)NC(=O)[C@H](Cc1c[nH]c2ccccc12)NC(=O)[C@@H](N)CCCNC(=N)N)C(=O)N[C@@H](Cc1c[nH]c2ccccc12)C(N)=O	Candida albicans	broth microdilution	SP3931, RPMI 1640-MOPS	48 h, 30 °C	8 µM
